Published values of several laboratories.
± marks the error that the study gave.
OPRM1: Mu-type opioid receptor (OPRM1, Homo sapiens, UniProt P35372)
Chain of UniProt P35372 (whole entry, looked up): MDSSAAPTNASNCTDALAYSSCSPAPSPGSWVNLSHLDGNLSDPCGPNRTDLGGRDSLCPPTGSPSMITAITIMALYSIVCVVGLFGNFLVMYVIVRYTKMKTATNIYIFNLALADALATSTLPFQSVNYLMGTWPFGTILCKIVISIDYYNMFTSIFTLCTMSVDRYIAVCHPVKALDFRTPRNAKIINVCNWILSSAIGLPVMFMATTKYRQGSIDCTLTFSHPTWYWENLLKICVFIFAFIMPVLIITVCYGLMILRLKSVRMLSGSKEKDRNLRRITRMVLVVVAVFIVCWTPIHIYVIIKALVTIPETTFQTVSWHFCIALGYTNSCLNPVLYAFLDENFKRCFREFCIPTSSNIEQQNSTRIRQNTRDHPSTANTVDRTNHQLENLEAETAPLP
Kir3.1/Kir3.4: Kir3.1/Kir3.4 (Homo sapiens, UniProt P48544+P48549)
Chain of UniProt P48549 (whole entry, looked up): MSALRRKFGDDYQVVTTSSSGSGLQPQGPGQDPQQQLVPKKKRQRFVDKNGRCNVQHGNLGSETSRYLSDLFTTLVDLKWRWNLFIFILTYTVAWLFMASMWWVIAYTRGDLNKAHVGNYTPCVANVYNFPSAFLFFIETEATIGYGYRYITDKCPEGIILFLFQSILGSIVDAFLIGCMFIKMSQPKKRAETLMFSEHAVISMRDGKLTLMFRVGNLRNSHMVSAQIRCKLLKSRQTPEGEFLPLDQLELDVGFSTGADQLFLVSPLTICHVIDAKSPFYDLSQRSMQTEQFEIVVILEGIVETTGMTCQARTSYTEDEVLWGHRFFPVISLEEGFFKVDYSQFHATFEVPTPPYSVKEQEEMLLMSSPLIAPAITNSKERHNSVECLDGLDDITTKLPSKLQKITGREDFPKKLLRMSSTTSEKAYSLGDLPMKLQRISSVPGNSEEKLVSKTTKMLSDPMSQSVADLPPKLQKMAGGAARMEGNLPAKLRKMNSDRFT
Chain of UniProt P48544 (whole entry, looked up): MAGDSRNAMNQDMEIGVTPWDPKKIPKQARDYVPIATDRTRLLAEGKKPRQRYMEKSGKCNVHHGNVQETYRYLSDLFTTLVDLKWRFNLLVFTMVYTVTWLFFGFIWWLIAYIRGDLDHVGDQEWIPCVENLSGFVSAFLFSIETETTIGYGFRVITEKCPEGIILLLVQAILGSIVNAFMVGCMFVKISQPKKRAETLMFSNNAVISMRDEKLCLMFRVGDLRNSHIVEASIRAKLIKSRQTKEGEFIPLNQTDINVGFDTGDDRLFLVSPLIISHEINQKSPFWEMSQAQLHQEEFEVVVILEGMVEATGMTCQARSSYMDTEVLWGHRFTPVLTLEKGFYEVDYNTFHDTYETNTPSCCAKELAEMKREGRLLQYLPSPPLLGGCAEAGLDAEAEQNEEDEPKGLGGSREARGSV
CLPP: ATP-dependent Clp protease proteolytic subunit, mitochondrial (CLPP, Homo sapiens, UniProt Q16740)
Chain of UniProt Q16740 (whole entry, looked up): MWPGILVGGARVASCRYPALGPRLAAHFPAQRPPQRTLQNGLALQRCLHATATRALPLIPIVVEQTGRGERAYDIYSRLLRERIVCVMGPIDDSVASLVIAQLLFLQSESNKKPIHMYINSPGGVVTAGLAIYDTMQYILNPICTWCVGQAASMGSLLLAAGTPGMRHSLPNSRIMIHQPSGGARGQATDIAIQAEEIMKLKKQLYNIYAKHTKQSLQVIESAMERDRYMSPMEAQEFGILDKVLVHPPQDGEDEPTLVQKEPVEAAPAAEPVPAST
STK17B: Serine/threonine-protein kinase 17B (STK17B, Homo sapiens, UniProt O94768)
Chain of UniProt O94768 (whole entry, looked up): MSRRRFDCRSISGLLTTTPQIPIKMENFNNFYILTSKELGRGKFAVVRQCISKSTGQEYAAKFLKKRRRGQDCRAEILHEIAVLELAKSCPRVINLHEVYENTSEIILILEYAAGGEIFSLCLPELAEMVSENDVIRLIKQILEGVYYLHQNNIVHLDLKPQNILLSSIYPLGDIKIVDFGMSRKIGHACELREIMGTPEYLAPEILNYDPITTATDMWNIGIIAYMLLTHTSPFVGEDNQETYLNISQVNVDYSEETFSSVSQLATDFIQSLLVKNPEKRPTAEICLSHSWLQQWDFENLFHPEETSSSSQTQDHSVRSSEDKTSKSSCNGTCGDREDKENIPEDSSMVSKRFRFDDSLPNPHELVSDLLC
USP16 ZnF-UBD domain: Ubiquitin carboxyl-terminal hydrolase 16, ZnF-UBD domain (USP16, Homo sapiens, UniProt Q9Y5T5)
Chain of UniProt Q9Y5T5 (whole entry, looked up): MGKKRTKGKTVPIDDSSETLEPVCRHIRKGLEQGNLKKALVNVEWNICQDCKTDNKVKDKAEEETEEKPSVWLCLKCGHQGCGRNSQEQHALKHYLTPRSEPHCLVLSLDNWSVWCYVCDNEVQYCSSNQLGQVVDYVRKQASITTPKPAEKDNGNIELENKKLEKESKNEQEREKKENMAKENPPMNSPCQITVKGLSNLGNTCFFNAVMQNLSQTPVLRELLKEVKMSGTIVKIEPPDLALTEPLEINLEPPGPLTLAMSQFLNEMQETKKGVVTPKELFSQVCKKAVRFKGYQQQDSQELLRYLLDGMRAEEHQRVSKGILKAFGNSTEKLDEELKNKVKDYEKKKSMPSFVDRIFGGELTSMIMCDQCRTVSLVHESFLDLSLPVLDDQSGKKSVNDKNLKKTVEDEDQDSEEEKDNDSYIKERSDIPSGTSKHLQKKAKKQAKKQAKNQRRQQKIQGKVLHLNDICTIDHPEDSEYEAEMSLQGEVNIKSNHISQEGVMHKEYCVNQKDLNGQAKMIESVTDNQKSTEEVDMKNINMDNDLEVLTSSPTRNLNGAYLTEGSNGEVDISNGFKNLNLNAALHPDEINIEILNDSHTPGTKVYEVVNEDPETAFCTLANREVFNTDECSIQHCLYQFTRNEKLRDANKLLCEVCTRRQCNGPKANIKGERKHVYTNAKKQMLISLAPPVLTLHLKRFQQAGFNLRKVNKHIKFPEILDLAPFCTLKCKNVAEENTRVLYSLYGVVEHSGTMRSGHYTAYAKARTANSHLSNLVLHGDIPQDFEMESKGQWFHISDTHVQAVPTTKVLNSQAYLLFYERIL
Chain of UniProt Q8N884 (whole entry, looked up): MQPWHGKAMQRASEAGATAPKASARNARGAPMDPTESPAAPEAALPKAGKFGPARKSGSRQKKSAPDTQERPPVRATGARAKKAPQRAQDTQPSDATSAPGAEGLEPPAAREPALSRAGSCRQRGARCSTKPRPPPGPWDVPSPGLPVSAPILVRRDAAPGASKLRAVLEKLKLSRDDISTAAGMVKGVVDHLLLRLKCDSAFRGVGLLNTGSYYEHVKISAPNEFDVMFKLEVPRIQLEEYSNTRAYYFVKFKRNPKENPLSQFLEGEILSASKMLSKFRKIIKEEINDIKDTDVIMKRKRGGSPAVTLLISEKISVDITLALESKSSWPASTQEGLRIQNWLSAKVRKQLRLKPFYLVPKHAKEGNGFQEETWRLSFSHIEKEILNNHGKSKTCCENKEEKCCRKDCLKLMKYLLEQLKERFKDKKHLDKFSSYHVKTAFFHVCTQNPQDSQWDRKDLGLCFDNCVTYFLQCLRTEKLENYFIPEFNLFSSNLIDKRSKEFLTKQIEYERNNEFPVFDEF
Chain of UniProt Q9UK80 (whole entry, looked up): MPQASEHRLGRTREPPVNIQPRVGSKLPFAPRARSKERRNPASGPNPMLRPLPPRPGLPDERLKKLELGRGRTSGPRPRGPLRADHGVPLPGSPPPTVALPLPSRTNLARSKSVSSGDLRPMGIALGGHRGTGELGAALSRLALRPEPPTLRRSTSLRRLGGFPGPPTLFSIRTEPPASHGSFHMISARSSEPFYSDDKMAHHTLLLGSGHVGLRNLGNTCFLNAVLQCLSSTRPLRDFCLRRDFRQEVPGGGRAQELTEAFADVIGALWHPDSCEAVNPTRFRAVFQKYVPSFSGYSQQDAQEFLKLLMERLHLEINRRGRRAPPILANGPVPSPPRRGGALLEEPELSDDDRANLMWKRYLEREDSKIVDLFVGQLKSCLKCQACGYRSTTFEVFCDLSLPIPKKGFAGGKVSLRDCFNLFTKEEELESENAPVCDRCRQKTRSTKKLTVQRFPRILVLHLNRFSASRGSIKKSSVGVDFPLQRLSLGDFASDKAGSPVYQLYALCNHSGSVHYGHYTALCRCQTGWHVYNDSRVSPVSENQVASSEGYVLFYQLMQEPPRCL
Chain of UniProt Q6NT16 (whole entry, unmodified, looked up): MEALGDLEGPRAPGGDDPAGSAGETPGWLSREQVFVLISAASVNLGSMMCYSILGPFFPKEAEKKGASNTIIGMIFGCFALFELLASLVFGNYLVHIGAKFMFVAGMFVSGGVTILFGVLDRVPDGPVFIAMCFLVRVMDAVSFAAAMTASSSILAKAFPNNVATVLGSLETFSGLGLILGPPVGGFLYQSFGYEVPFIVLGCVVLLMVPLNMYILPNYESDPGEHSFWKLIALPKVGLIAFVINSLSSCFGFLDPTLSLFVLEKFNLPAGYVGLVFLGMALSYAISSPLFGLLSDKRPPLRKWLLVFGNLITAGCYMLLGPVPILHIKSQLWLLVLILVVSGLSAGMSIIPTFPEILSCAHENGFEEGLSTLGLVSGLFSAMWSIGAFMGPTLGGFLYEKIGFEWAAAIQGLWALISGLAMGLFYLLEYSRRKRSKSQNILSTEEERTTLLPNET
Chain of UniProt Q9H8M2 (whole entry, looked up): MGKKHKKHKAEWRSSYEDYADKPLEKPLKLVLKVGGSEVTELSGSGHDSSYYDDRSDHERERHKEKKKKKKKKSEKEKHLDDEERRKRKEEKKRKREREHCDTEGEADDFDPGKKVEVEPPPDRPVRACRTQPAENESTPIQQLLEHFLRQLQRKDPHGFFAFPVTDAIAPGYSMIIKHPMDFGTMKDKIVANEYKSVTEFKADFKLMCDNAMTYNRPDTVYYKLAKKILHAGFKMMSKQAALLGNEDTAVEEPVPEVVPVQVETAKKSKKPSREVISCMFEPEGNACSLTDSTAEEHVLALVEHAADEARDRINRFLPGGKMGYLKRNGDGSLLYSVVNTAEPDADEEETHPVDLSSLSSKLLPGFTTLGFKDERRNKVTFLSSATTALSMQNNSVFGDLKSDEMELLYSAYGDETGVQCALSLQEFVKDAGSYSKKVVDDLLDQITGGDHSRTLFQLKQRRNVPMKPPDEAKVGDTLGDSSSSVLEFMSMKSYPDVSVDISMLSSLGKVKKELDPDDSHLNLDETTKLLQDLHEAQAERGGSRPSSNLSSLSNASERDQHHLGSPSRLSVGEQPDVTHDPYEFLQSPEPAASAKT

| Compound | target or system | test | test system | setting | how to read | quantity | result |
| --- | --- | --- | --- | --- | --- | --- | --- |
| CCn1c(-c2nc3cc(C(=O)N4CCC[C@@H](N)C4)cc(OC)c3n2C)cc2cccnc21 | OPRM1 | agonist, GTPγS binding | – | – | – | EC50 | > 100 µM |
| CCc1cc(NC(=O)COc2cc(Cl)ccc2Cl)n(C2CCOCC2)n1 | Kir3.1/Kir3.4 | activator, thallium flux | HEK293 | – | – | EC50 | 0.49 µM |
| C[C@H]1C2=C(CCN1Cc1cccc(C#N)c1)N1CCN=C1N(Cc1ccc(Br)cc1)C2=O | CLPP | peptidase activity, activator | – | added: Ac-WLA-AMC | – | EC50 | 0.739 ± 0.0104 µM |
| O=C(COc1ccc(Cl)cc1Cl)Nc1cc(C2CCC2)nn1C1CCC(F)(F)CC1 | Kir3.1/Kir3.4 | activator, thallium flux | HEK293 | – | – | EC50 | 10 µM |
| COc1cc(Nc2ncc3c(n2)-c2ccc(Cl)cc2C(c2c(F)cccc2OC)=NC3)ccc1C(=O)NCCOCCOCCNC(=O)COc1cccc2c1C(=O)N(C1CCC(=O)NC1=O)C2=O (stereo not drawn) | STK17B | binding, kinobead competition | MV4-11 cell lysate | – | – | EC50 | > 30 µM |
| O=C(COc1ccc(C(F)(F)F)cc1C(F)(F)F)Nc1cc(C2CC2)nn1C1CCC(F)(F)CC1 | Kir3.1/Kir3.4 | activator, thallium flux | HEK293 | – | – | EC50 | 6.4 µM |
| CC[C@@H](C)[C@@H](NC(=O)[C@@H](C)NC(=O)[C@@H](CCCNC(=N)N)NC(=O)[C@@H](Cc1c[nH]c2ccccc12)NC(=O)[C@@H](CCC(N)=O)NC(=O)[C@H](N)C(C)C)C(=O)N[C@H](CCCNC(=N)N)C(=O)N[C@@H](C(=O)N[C@H](CCCNC(=N)N)C(=O)N[C@@H](C(=O)N[C@@H](C(=O)N[C@H](CCCNC(=N)N)C(N)=O)[C@H](C)CC)C(C)C)C(C)C | Mrgprb2 (Mus musculus, UniProt Q3KNA1) | mast cell degranulation, agonist, item: β-hexosaminidase release | peritoneal mast cells, wild-type mice | – | – | EC50 | 1.39 µM |
| C[C@H]1C[C@@H](N2C(=N)N[C@](C)(c3cccc(NC(=O)c4cccc(C#N)c4)c3Cl)CC2=O)CCO1 | OPRM1 | functional response, agonist | cells | – | – | EC50 | 16 µM |
| Cc1cc(NC(=O)C2CCc3cc(Cl)ccc3O2)n(C2CCS(=O)(=O)C2)n1 (stereo not drawn) | Kir3.1/Kir3.4 | activator, thallium flux | HEK293 | – | – | EC50 | 5.58 µM |
| CCNC(=O)N1CCN(c2nc(NC3CCN(C(=O)[C@@H](CCc4ccc(OC)cc4)NC(=O)[C@@H]4CCCCN4C(=O)C(=O)C(C)(C)CC)CC3)nc(N(Cc3cnn(C)c3)C3CC3)n2)CC1 | FKBP1A/BRD9, BRD9 bromodomain (Homo sapiens, UniProt P62942+Q9H8M2) | FKBP12 recruitment, NanoBiT | HEK-293T | 2 h, BRD9 bromodomain | – | EC50 | 0.82 µM |
| CC(C)C[C@H](NC(=O)C[C@H](O)[C@H](CC(C)C)NC(=O)[C@H](Cc1c[nH]cn1)NC(=O)CNC(=O)[C@@H](NC(=O)[C@H](C)NC(=O)[C@H](Cc1c[nH]c2ccccc12)NC(=O)[C@H](CCC(N)=O)NC(=O)[C@@H](Cc1ccccc1)NC(=O)COCCOCCNC(=O)CCC(C(=O)O)N1CCN(CC(=O)O)CCN(CC(=O)O)CCN(CC(=O)O)CC1)C(C)C)C(N)=O (stereo partly drawn) [lutetium-177 labelled] | – | – | BALB/c nu/nu mice, small intestine | 500 pmol, 1 h, added: PA 300 µg | – | tissue uptake | 0.4 ± 0.2 %ID/g |
| Cn1cc(-c2ccc(-c3cncc(Cl)c3N3CCC4(CCNC4=O)CC3)cc2)cn1 | COLO 205 | gene expression, microarray, item: NRF1 mRNA | – | concentration not given, 6 h | baseline: untreated cells | log2 fold change | -2.24 |
| O=C(O)CNc1ncccn1 | USP16 ZnF-UBD domain | – | – | – | – | Kd | > 1000 µM |
| COc1cc(Nc2ncc3c(n2)-c2ccc(Cl)cc2C(c2c(F)cccc2OC)=NC3)ccc1C(=O)O | STK17B | binding, kinobead competition | MV4-11 cell lysate | – | – | EC50 | 4.45 µM |
| Cc1nn(-c2nc3c(F)cc(F)cc3s2)c(O)c1C(c1cccc(C(F)(F)F)c1)c1c(C)nn(-c2nc3c(F)cc(F)cc3s2)c1O | Cyclic GMP-AMP synthase, catalytic domain; with DNA (CGAS, Homo sapiens, UniProt Q8N884) | cGAS-DNA phase separation, inhibitor | – | – | – | EC50 | 4.7 µM |
| Cc1cc(NC(=O)C2CCc3cc(F)ccc3O2)n(C2CCS(=O)(=O)C2)n1 (stereo not drawn) | Kir3.1/Kir3.4 | activator, thallium flux | HEK293 | – | – | EC50 | > 10 µM |
| C[C@@H]1CC2=C(CN1Cc1cccc(C#N)c1)C(=O)N(Cc1ccc3ccccc3c1)C1=NCCN12 | CLPP | peptidase activity, activator | – | added: Ac-WLA-AMC | – | EC50 | 0.0777 ± 0.0156 µM |
| CC(=O)c1cc([N+](=O)[O-])c(Sc2cccc(Cl)c2Cl)s1 | Ubiquitin carboxyl-terminal hydrolase 21 (USP21, Homo sapiens, UniProt Q9UK80) | enzyme activity, inhibitor | – | – | – | EC50 | > 50 µM |
| Cc1cnc(C)c(C)n1 | uncharacterized protein (Puma concolor, UniProt A0A6P6H1F7) | cAMP, agonist | HEK293 transfected with uncharacterized protein | – | – | EC50 | 346 ± 19.1 µM |
| O=C(O)CCc1ccccc1 | USP16 ZnF-UBD domain | – | – | – | – | Kd | 429 µM |
| COc1cc2c(cc1OC)[C@H]1C[C@@H](O)[C@H](CC(C)C)CN1CC2 | MFS-type transporter SLC18B1 (SLC18B1, Homo sapiens, UniProt Q6NT16, W384A) | binder | – | radiolabeled protein variants | – | Kd | 385 µM |

Excerpt of the above:
| Compound | target or system | test | test system | setting | how to read | quantity | result |
| --- | --- | --- | --- | --- | --- | --- | --- |
| C[C@@H]1CC2=C(CN1Cc1cccc(C#N)c1)C(=O)N(Cc1ccc3ccccc3c1)C1=NCCN12 | CLPP | peptidase activity, activator | – | added: Ac-WLA-AMC | – | EC50 | 0.0777 ± 0.0156 µM |
| Cn1cc(-c2ccc(-c3cncc(Cl)c3N3CCC4(CCNC4=O)CC3)cc2)cn1 | COLO 205 | gene expression, microarray, item: NRF1 mRNA | – | concentration not given, 6 h | baseline: untreated cells | log2 fold change | -2.24 |
